Published values from different studies.
Parts stem from different laboratories: compare values within a part only. Substitutions count along the parent as printed.

Study 1
Target: RING finger protein unkempt homolog, zinc fingers 1-6, GST-SBP tag (UNK, Homo sapiens, UniProt Q9C0B0, residues 30-357)
Chain of UniProt Q9C0B0 (30-357, looked up): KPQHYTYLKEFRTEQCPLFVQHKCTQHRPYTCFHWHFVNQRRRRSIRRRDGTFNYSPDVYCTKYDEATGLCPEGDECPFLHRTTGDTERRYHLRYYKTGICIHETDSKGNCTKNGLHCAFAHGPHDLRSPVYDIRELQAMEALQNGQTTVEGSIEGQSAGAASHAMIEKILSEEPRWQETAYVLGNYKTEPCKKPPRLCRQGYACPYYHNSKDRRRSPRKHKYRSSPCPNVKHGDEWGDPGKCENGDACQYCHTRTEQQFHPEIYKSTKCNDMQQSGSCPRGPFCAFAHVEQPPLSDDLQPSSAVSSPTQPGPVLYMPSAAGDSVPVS
Method: RNA Bind-n-Seq
Molecule type: RNA
Matrix: in vitro
Concentration: not given
Notes: RNA with constant flanks, human-mouse chimeric sites, ends assumed
Relative to: input RNA pool
Direction: higher = stronger binding
Oligonucleotide	bound/input enrichment [ratio]
GGGAGUUCUACAGUCCGACGAUCGGUGGGGGGUUGUCAUUCGUUUGAGCUGCUGAUUUUCAUGAGUCGCCUUCAAAACUCUCGCAUAGGGUUGACAAUGUGGGGGGGUGGGGGAUCCAGCUUAUUCUUUUAUUUUCAAGUCCACAACAGAGGAUUGAGCAUCA	0.582
GGGAGUUCUACAGUCCGACGAUCCCUCCCCCGGGCCACCCACCCCUCCCGGCUCCCCGCCGAGAUCCAGGUUUCUUCUGUUUUCAUAGCAAAUAAGAAAAAUGUUCUACGCACAUUUUGUCCUCAGUAAACGAGGGCCUCUGGCAACAGAGGAUUGAGCAUCA	0.642
GGGAGUUCUACAGUCCGACGAUCCAGUCCCCGUGUCCCAGGGGACAAUGUUGUGAACAAAUCGAAGACAUGGACCCUCUAUUGUAGUUCUUGAUUCUCGAAAUGUGCUAUUAUUGUUUGUCUUUUUUUUUUUUUUUUUAAAGACAACAGAGGAUUGAGCAUCA	1.15
GGGAGUUCUACAGUCCGACGAUCACCAUUUCUGAAUACACGGCUUUGUGUGUAGUUCACUUACGGUAUUAAAUUAUUAUUCUGCUUAGCUUAUAAUAAGGAUAAUUGCAUUUAAAGAGGUUACUGAAUGUUGUUAUUGUUCUUCAACAGAGGAUUGAGCAUCA	1.03

Study 2
Target: RNA binding protein fox-1 homolog 2, RRM domain, GST-SBP tag (RBFOX2, Homo sapiens, UniProt O43251-10, residues 100-194)
Method: RNA Bind-n-Seq
Molecule type: RNA
Matrix: in vitro
Concentration: 365 nM
Notes: natural RNA segment, single round, ends assumed
Relative to: no-protein control
Direction: higher = stronger binding
Constant ends, left off below: GGGAGUUCUACAGUCCGACGAUC … UGGAAUUCUCGGGUGCCAA
Residues (chain): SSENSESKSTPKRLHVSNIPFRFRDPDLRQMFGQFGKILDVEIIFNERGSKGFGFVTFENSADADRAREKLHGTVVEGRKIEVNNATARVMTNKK
Oligonucleotide	RBNS enrichment (R)
UGCCCCUUGUUGGCCCGAGGAAGGAUGUGGAAAGAGCACCUGGUGGGAUGAAGGUCCAACAGCCUGUGCCUCUCCACUGCUGGCCCUGGAGCCGGCAGCAGUGAGGCAUU	0.34
GAAUAUGUCACAUAAAGAAAAUGUGUUUAGAAUACUGGUUUUCUAUUUACGCAUGAUAUUUUCCUAAGUAAAAUUGCCAAGUGGACUUGGAAGUCCAGAAAGGAAAAUAA	3.34
GCAGAUCUUCGUGGUUAUCAUCUCAAAGCCAUGUUCAGCAGCAGCGUUUGGACAGCAGUGUUCUGUGGGCCCUCCCCUCCCCCAUAUCCUGCACCCCCUCAUAGCAGUAG	0.56
GCCCUUGGGCCACCCCUCCUAGUUUGGGAGGAGCAGAUUUUUGCAAUACCAAGUAUAGCCUAUGGCAGAAAAAAUGUCUGUAAAUAUGUUUUUAAAGGUGGAUUUUGUUU	0.419
UGAUCUGCCUCUAAAAGCGUUGGAUGUAGCAUUAUGCAAUUAGGUUUUUCCUUAUUUGCUUCAUUGUACUACCUGUGUAUAUAGUUUUUACCUUUUAUGUAGCACAUAAA	0.923
GGGACCAUAUUUCACAGAGCAAUGGAAAAGCUCCCUCUCCCCAACCCUCCUGCUCUGAGAGAAGAAAUCGAACUGAGGCUUCUUCUCUGGAGGUAAGGUUGCUGGUGGCC	0.323

Study 3
Target: CCNE1, cyclin fold, Cln2 fusion (human)
Method: yeast growth competition, sequencing
Matrix: yeast
Notes: strong parent motif
Relative to: not given
Direction: higher = stronger binding
Starting sequence: PKN2 docking peptide (human); VSAVRKLDFSDTM
Substitution	normalised enrichment score
K6W	4.28
R5S	0.176
D11M	5.15
D11C	5.28
T12F	5.98

Single results of other studies
Substance	target	test	system	conditions	how to read	quantity	value
PhoQ, residues 284 288 289 292 302 303 GTAMQF	PhoP, residues 12 14 15 18 19 NHFIF (Escherichia coli, UniProt P23836)	Sort-seq, item: YFP reporter	E. coli	PhoQ-PhoP variant library, together with: 10 µM Mg2+	relative to: high Mg2+ state, higher = stronger signaling	fold induction	18.8

Excerpt of the above (study 2):
Oligonucleotide	RBNS enrichment (R)
GCAGAUCUUCGUGGUUAUCAUCUCAAAGCCAUGUUCAGCAGCAGCGUUUGGACAGCAGUGUUCUGUGGGCCCUCCCCUCCCCCAUAUCCUGCACCCCCUCAUAGCAGUAG	0.56
GCCCUUGGGCCACCCCUCCUAGUUUGGGAGGAGCAGAUUUUUGCAAUACCAAGUAUAGCCUAUGGCAGAAAAAAUGUCUGUAAAUAUGUUUUUAAAGGUGGAUUUUGUUU	0.419
